Measured values of several laboratories.
Numbered parts are unrelated; each lists some results of a single study. Changes are numbered by the printed parent chain.

Series 1
Target: BATF3, bZIP domain (human)
Technique: DHFR protein complementation
Matrix: yeast
Notes: single substitutions, most at no-binding floor
Reference: wild-type JUN-FOS pair
Reading: higher = stronger binding
Parent: JUN, bZIP domain (human); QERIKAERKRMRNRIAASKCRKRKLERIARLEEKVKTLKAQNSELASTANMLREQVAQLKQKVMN; partner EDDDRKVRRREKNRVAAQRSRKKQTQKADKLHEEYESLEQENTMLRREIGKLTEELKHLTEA
With `S43G` the binding fitness was 0.253 natural log.
With `N42F` the binding fitness was -0.249 natural log.
With `S43V` the binding fitness was 0.113 natural log.
`I28L` has a binding fitness of 0.243 natural log.
For `K34Q`, the binding fitness was 0.184 natural log.
For `A49D`, the binding fitness was -0.442 natural log.
The binding fitness of `A57T` is reported as 0.23 natural log.
For `E33F`, the binding fitness was 0.106 natural log.

Series 2
Target: POU, POU domain (Salpingoeca helianthica)
Technique: Spec-seq
Form: double-stranded DNA, one strand shown
Matrix: in vitro
Concentration: not given
Notes: whole probe, mean of replicates
Reference: not given
Reading: lower = stronger binding
Shared flanks, not repeated: GAGTCGTCTCGTCAGCAC … CCGTAGAGCACTCAGGTC
Residues (chain): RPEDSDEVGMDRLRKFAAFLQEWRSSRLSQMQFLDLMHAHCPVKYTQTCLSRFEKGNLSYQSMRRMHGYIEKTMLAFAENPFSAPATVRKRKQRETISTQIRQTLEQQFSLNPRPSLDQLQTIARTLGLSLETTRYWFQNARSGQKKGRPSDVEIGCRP
`ATATAAAT`: “relative binding energy” 0.553 ln ratio.
Under “relative binding energy”, `ATTGCTAT` is recorded as 0.748 ln ratio.
`ATGCGGTG`: “relative binding energy” 1.34 ln ratio.
For `GAAGTAAT`, “relative binding energy” read 0.7 ln ratio.
`CATTTAAT` — result for “relative binding energy”: -0.859 ln ratio.
Under “relative binding energy”, `ATGCCTTA` is recorded as 1.08 ln ratio.
Under “relative binding energy”, `ATGCCCGC` is recorded as 1.34 ln ratio.
Under “relative binding energy”, `CGAATAAT` is recorded as 0.266 ln ratio.

Series 3
Target: OGT, full length, His-tagged (human)
Technique: phage display, sequencing
Matrix: in vitro
Concentration: 1 µg OGT
Notes: single substitutions, 15-mer displayed peptide, unchanged parent 19.6
Reference: input library
Reading: higher = stronger binding
Parent: peptide; TAPFYPPAYQIQVFK
`I11W` gave a fold enrichment of 0.939 fold.
The fold enrichment of `P7E` is reported as 1.65 fold.
`A2G` has a fold enrichment of 20.6 fold.
`Q12Y` gave a fold enrichment of 11.2 fold.
The fold enrichment of `Q12M` is reported as 7.68 fold.
`Y9E` gave a fold enrichment of 0.474 fold.
`Y5G` gave a fold enrichment of 1.14 fold.
With `Y9K` the fold enrichment was 0.484 fold.

Mixed results
Parent: PafA, mature enzyme, eGFP fusion (Elizabethkingia meningoseptica, UniProt Q9KJX5); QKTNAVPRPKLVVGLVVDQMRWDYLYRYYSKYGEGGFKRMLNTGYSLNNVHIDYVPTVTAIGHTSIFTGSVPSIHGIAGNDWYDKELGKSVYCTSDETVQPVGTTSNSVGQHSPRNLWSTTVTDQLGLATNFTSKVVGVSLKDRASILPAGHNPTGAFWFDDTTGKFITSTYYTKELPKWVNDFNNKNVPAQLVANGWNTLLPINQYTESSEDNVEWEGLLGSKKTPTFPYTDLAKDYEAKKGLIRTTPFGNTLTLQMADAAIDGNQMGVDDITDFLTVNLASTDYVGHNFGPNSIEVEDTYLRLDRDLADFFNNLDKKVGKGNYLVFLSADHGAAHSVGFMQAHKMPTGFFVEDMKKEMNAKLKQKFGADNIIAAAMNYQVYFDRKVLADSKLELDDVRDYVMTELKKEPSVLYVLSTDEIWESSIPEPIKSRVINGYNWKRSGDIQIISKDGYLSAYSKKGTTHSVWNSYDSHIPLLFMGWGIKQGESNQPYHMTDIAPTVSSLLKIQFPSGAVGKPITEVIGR
`V71A`: “oxyanion analog dissociation constant” 557 nM (vanadate, free oxyanion; microfluidic competitive inhibition; in vitro, cell-free expressed; not given, derived from inhibition constants, unchanged parent 676 nM; lower = stronger binding).

For quick reference, copied from above (series 1):
For `A49D`, the binding fitness was -0.442 natural log.
